Measured values of several laboratories.
Numbered parts are unrelated; each lists some results of a single study.

Sample 1 — method: RNAcompete; form: RNA; medium: in vitro; tested at: 20 nM; notes: 7-mer, probes averaged, single round; reference: mean of 7-mers; reading: higher = stronger binding; measurement: 7-mer Z-score
Target: PABPC1L2, full length, GST fusion (mouse, UniProt A0ABA7IW68)
Construct (chain): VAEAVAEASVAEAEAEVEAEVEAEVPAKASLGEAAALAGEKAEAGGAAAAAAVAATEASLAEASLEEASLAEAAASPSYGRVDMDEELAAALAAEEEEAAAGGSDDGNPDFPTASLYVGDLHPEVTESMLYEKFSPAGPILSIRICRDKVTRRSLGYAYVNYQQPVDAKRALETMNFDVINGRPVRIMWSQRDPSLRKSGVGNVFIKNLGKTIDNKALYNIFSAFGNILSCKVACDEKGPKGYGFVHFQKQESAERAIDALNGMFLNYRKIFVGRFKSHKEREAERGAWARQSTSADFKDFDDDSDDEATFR
Sequence = UCGCCUG; result = -0.44
Sequence = CCGUGGG; result = -0.0663
Sequence = CCUGGAU; result = -0.103

Further values, each from its own experiment
ETS1 Y397A: Protein C-ets-1 (ETS1, Homo sapiens, UniProt P14921, residues 1-441, Y397A, full length assumed)
Sequence of UniProt P14921 (whole entry, unmodified, looked up): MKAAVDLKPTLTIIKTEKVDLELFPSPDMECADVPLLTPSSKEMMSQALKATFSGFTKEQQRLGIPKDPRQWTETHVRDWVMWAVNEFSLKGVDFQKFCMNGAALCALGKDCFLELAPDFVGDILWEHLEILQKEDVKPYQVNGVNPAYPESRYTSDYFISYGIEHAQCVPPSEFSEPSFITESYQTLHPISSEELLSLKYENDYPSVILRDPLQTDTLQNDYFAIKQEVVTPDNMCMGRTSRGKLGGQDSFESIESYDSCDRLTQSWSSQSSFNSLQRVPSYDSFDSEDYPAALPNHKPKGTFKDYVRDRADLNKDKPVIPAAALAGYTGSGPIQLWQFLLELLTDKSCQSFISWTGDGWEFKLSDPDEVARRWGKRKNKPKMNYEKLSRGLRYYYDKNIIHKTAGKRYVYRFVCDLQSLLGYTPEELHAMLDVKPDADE
Molecule = TACAGGCA; target = Histone acetyltransferase KAT6A, winged helix 2, GST fusion (KAT6A, Homo sapiens, UniProt Q92794, residues 85-181); test = protein binding microarray; system = double-stranded DNA, one strand shown, in vitro; setting = not given, 8-mer, flanks averaged, mean of 2 arrays, mostly near background; scale = reference: not given, higher = stronger binding; measurement = E-score; result = 0.0168
Molecule = GATTGCCA; target = ETS1 Y397A; test = protein-binding microarray; system = double-stranded DNA, one strand shown, in vitro; setting = not given, k-mer, scored over probes, only values ≥0.25; scale = higher = stronger binding; measurement = E-score; result = 0.356
Molecule = CAGGGGTA; target = Histone acetyltransferase KAT6A, both winged helices, GST fusion (KAT6A, Homo sapiens, UniProt Q92794, residues 1-181); test = protein binding microarray; system = double-stranded DNA, one strand shown, in vitro; setting = not given, 8-mer, flanks averaged, mean of 2 arrays, mostly near background; scale = reference: not given, higher = stronger binding; measurement = E-score; result = -0.201
Molecule = PhoQ, residues 284 288 289 292 302 303 AQGLTV; target = PhoP, residues 12 14 15 18 19 NYFTV (Escherichia coli, UniProt P23836); test = Sort-seq, refers to: YFP reporter; system = E. coli; setting = PhoQ-PhoP variant library, together with: 10 µM Mg2+; scale = reference: high Mg2+ state, higher = stronger signaling; measurement = fold induction; result = 0.842
Molecule = ATGTTAAC; target = ETS1 Y397A; test = protein-binding microarray; system = double-stranded DNA, one strand shown, in vitro; setting = not given, k-mer, scored over probes, only values ≥0.25; scale = higher = stronger binding; measurement = E-score; result = 0.265
